Measurements gathered from unrelated publications.
Every numbered part comes from another study and shows a few of its results, in no order.

Study 1
Target: Sal-like protein 4, full length isoform B (SALL4, Homo sapiens, UniProt Q9UJQ4-2, residues 1-616)
Technique: universal PBM
Form: double-stranded DNA, one strand shown
Medium: in vitro
Concentration: not given
Setting: 8-mer, flanks averaged, mean of replicates
Reading: higher = stronger binding
Quantity: E-score
Construct (chain): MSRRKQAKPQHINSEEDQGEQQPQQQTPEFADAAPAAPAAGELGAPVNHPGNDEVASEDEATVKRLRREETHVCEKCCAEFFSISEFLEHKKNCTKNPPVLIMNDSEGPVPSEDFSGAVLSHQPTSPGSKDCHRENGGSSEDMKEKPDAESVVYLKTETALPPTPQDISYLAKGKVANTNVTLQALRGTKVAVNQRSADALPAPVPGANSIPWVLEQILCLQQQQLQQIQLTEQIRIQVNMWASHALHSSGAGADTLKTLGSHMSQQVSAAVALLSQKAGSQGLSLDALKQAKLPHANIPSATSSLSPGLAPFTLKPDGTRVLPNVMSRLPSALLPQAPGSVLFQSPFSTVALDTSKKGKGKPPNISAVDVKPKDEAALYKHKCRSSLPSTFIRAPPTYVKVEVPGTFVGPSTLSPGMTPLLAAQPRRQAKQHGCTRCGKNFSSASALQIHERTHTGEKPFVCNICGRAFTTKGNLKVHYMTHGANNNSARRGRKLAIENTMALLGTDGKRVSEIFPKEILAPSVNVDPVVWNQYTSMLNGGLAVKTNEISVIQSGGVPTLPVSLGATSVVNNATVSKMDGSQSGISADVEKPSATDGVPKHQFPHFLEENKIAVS
AACGCTCA: -0.143
TCACTCGA: 0.0301
CGTAAATA: 0.308

Single results of other studies
KAT6A winged helix 1, GST fusion: Histone acetyltransferase KAT6A, winged helix 1, GST fusion (KAT6A, Homo sapiens, UniProt Q92794, residues 1-85)
IRF7 S101K/S471D/S472D/S475D/S476D/S477D/S483D/S484D/S487D full length, phosphomimetic: Interferon regulatory factor 7, full length, phosphomimetic (IRF7, Homo sapiens, UniProt Q92985, residues 1-503, S101K/S471D/S472D/S475D/S476D/S477D/S483D/S484D/S487D)
UniProt Q92985, sequence (whole entry, unmodified, looked up): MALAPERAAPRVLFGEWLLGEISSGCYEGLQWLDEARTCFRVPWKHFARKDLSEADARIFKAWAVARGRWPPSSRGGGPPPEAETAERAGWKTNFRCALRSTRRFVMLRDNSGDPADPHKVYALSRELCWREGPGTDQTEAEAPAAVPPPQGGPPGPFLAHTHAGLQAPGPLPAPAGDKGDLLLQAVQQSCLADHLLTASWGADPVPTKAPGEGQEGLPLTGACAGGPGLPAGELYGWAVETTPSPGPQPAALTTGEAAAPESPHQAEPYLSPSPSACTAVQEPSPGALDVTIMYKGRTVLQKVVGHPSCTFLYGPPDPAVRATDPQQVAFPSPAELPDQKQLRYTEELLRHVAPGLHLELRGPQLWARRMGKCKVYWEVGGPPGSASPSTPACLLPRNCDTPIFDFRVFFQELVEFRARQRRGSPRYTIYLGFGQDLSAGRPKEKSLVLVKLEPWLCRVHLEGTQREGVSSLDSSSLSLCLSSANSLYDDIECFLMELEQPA
GCCTAGCACAGAGTCACCCATCTCAACAAGTGCTAGGTCTTGATTCGCTTGACGCTGCTG — fitted relative affinity (Interferon regulatory factor 7, full length, phosphomimetic (IRF7, Homo sapiens, UniProt Q92985, residues 1-503, S471D/S472D/S475D/S476D/S477D/S483D/S484D/S487D); protein-binding microarray; double-stranded DNA, one strand shown, in vitro; 2200 nM top, 60-bp whole probe, with: salmon DNA 0.4 mg/ml; baseline: random background probes, higher = stronger binding): 0.312 z-score
ATGGTCCG — E-score (KAT6A winged helix 1, GST fusion; protein binding microarray; double-stranded DNA, one strand shown, in vitro; not given, 8-mer, flanks averaged, mean of 2 arrays, mostly near background; baseline: not given, higher = stronger binding): 0.159
GCCTAGCACGACGGTATCGGGGTTCGGGACGTGCTAGTCTTGATTCGCTTGACGCTGCTG — log fluorescence (IRF7 S101K/S471D/S472D/S475D/S476D/S477D/S483D/S484D/S487D full length, phosphomimetic; protein-binding microarray; double-stranded DNA, one strand shown, in vitro; 250 nM, 60-bp whole probe, with: salmon DNA 0.4 mg/ml; baseline: random background probes, higher = stronger binding): -0.188 z-score
GATGGTTA — E-score (Histone acetyltransferase KAT6A, both winged helices, GST fusion (KAT6A, Homo sapiens, UniProt Q92794, residues 1-181); protein binding microarray; double-stranded DNA, one strand shown, in vitro; not given, 8-mer, flanks averaged, mean of 2 arrays, mostly near background; baseline: not given, higher = stronger binding): -0.152
PhoQ, residues 284 288 289 292 302 303 TLMATV — fold induction (PhoP, residues 12 14 15 18 19 NMSSL (Escherichia coli, UniProt P23836); Sort-seq, refers to: YFP reporter; E. coli; PhoQ-PhoP variant library, with: 10 µM Mg2+; baseline: high Mg2+ state, higher = stronger signaling): 49.1
AGACTAAC — E-score (KAT6A winged helix 1, GST fusion; protein binding microarray; double-stranded DNA, one strand shown, in vitro; not given, 8-mer, flanks averaged, mean of 2 arrays, mostly near background; baseline: not given, higher = stronger binding): -0.117
GCCTAGCACGACGCTATCCTTCTCCTGACGTGCTAGGTCTTGATTCGCTTGACGCTGCTG — log fluorescence (IRF7 S101K/S471D/S472D/S475D/S476D/S477D/S483D/S484D/S487D full length, phosphomimetic; protein-binding microarray; double-stranded DNA, one strand shown, in vitro; 250 nM, 60-bp whole probe, with: salmon DNA 0.4 mg/ml; baseline: random background probes, higher = stronger binding): 0.109 z-score
